Measurements of several laboratories.
Parts stem from different laboratories: compare values within a part only. Changes are numbered by the printed parent chain.
Sequence of UniProt P10721 (whole entry, unmodified, looked up): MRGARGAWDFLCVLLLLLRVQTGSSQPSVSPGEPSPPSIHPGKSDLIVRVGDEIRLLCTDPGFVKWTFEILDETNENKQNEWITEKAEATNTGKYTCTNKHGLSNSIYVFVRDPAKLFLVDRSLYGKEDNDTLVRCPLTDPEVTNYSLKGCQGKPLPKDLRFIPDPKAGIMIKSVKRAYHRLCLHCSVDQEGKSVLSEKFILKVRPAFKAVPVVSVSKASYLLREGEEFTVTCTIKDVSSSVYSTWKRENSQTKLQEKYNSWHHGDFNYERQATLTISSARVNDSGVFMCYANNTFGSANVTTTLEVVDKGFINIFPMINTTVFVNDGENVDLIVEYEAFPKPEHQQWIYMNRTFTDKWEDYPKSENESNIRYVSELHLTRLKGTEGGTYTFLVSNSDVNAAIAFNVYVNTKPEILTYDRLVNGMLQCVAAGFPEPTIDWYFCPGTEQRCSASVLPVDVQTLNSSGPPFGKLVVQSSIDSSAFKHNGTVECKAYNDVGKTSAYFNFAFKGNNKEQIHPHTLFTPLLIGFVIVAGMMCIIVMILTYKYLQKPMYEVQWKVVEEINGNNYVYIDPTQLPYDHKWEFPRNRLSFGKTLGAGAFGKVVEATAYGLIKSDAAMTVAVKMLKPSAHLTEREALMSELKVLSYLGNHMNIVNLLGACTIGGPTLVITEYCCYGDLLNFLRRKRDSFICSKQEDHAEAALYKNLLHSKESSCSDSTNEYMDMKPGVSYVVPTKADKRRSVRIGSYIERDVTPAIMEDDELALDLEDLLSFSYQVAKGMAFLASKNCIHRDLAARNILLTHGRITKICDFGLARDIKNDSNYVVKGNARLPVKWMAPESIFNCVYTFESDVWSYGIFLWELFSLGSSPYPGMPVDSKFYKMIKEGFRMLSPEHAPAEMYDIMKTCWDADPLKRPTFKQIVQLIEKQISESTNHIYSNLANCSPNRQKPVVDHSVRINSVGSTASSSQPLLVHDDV

Series 1
Target: MAFG, bZIP domain (human)
Method: DHFR protein complementation
Sample: yeast
Notes: single substitutions, most at no-binding floor
Baseline: wild-type JUN-FOS pair
Reading: higher = stronger binding
Quantity: binding fitness
Starting sequence: JUN, bZIP domain (human); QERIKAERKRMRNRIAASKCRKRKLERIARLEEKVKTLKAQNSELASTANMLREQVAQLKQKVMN; partner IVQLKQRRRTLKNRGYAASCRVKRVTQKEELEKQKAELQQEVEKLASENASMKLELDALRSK
E32H: -1.45 natural log
K34T: -1.15 natural log
A49N: -1.46 natural log
V56S: -1.52 natural log
A49G: -1.4 natural log
A29V: -1.36 natural log
N42Q: -1.38 natural log
E32I: -1.5 natural log

Series 2
Target: TAR DNA-binding protein 43, full length, His tag (TARDBP, Homo sapiens, UniProt Q13148, residues 1-414)
Method: RNA Bind-n-Seq
Form: RNA
Sample: in vitro
Concentration: 20 nM
Notes: 6-mer, flanks averaged, single round
Together with: 150 mM LiCl
Baseline: input library
Reading: higher = stronger binding
Quantity: 6-mer enrichment (R)
GAAGCU: 0.885
UACCAG: 0.852
ACUCGU: 0.818
AUGCAG: 0.962
GCAUCG: 0.863
AGUUGU: 1.17
GUUGAA: 1.07
CGGGUG: 1.21

Series 3
Target: RNA binding protein fox-1 homolog 2, RRM domain, GST-SBP tag (RBFOX2, Homo sapiens, UniProt O43251-10, residues 100-194)
Method: RNA Bind-n-Seq
Form: RNA
Sample: in vitro
Concentration: 365 nM
Notes: natural RNA segment, single round, ends assumed
Baseline: no-protein control
Reading: higher = stronger binding
Quantity: RBNS enrichment (R)
Constant ends, left off below: GGGAGUUCUACAGUCCGACGAUC … UGGAAUUCUCGGGUGCCAA
Residues (chain): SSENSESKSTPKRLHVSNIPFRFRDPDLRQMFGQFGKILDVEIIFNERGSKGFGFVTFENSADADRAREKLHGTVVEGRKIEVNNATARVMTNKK
ACCAUGUGCCCCUGGCUGCCCUUAUCCGCCCAAACCAAAGGCUGAGAGGGGGAGGCCUGUGUCCUUCCAGCUUCAUUGCACAUGGUCCCCCUCCUGCAACCAGGCUACCU: 0.444
GUCUGUUGUGUGUCAUGCCAGUGAGGGACGUCAGACUUGGCUCAGCUCGGGGAGCCUUAGCCGCCCAUGCACUGGGGACGCUCCGCUGCCGUGCCGCCUGCACUCCUCAG: 0.486
AGGCUCAAGGCUGUGCAGGCACAUAGGCUGGUGGCCUUGGGCCUUGGGGCUCAGCCACAGCCUGACACAGUGCUCGACCUUGAUAGCAUGGGGCCCCUGGCCCAGAGUUG: 2.11
GGGCCAAUGAUUCUUGUGUGUCAGCACUGUUACUACCGAGUGCUGAGUAAGGGCAAAAUAAUACCCCUUUCUCUAUGUAUCUCUGUAUGCACACGCACUAUAUAUAUAUA: 0.292
UAGCUAGAAAAAAAGGUUGGCUCUCAUCAGCCUUAAUUUUGGAAAGCAGCUACUUACCCCUCAGAGAAUAAAGUAUUAUGCAUUCUUGUCAAUUUGAAAACUACAUCUAC: 0.352
UGAAGGGCGAUGCCUCGCCCGAGGCUUUGGGCUGCUGCACUGCAUGCUGGGACUGCUCCUACUCUCUGUCCCACCCCUCACCCAGCUGUGGUCCGGCUUUGGGAGAGUGG: 8.66
GAACUCUGUGAAGGGAGGCCCAGAAUGGGUGCUUUCACCAAAAAAUUUGCCCGUUUACAAUCCUAGACGGACUGGGCCAUCAUUAGCUAAUAGCCUUUCUCCCUUGCCAU: 0.329
UUAUUUUCCAUUUGACAUUAGGGCCUUUCCAAAAUGAAUGUGAGGAAUUGCUUUCACUUCAAGACUUUCCUUCUUUUCACUAAAACUCUAGAAGGUGUUACAAGGGGGAG: 0.457

Mixed results
CCC(=O)N[C@@H]1CC[C@H](C(=O)N(C)c2ccc(-c3nc4ccccc4o3)cc2)C1  remaining binding (Mast/stem cell growth factor receptor Kit (KIT, Homo sapiens, UniProt P10721, V559D); cell-free assay, competition with immobilised ligand; 1 µM): 100%

Some of these lines once more (series 2):
AUGCAG: 0.962
GCAUCG: 0.863
